# Experimental data of several laboratories.
# Numbered parts are unrelated; each lists some results of a single study. Positions count from the first letter of the parent shown.

# Sample 1 — technique: protein binding microarray; molecule type: double-stranded DNA, one strand shown; matrix: in vitro; concentration: not given; relative to: not given; direction: higher = stronger binding
# Target: Histone acetyltransferase KAT6A, winged helix 2, GST fusion (KAT6A, Homo sapiens, UniProt Q92794, residues 85-181)
# Setting: 8-mer, flanks averaged, mean of 2 arrays, mostly near background
# Construct (chain): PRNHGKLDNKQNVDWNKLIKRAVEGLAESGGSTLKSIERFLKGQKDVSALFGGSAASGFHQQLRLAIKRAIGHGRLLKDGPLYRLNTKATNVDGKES
Oligonucleotide,E-score
CGACTGAC,-0.149
GCTATTGA,-0.148
CTGTGCTA,0.133
ATGGGCAA,-0.0626
TATGAGGA,-0.106
GTGGCAAC,0.111
GATATGGC,-0.173
TATCGTGA,-0.0964
CGTATTCC,0.00517
CTGTCCAC,0.068
CTTCCAGC,-0.00037
GCGGGACA,0.0664
ATGTCTGC,0.0127
CTACCGCC,0.123
AGCCTACC,-0.188
ACGTAGGA,-0.0955
GCACTAGC,0.0621

# Sample 2 — technique: aptamer microarray, sandwich; molecule type: DNA with 2'F-ANA; matrix: in vitro; concentration: 200 nM; together with: Cy3 exosite-II aptamer, 400 nM; direction: higher = stronger binding; oligonucleotide: GGTTGGTGTGGTTGG
# Target: Prothrombin, mature alpha-thrombin (F2, Homo sapiens, UniProt P00734)
# Setting: whole 15-mer aptamer, many near background
Modification,mean fluorescence intensity
2'F-ANA at 1 2 4 6 7,124 a.u.
2'F-ANA at 2 4 7 8 9 12 13 14,123 a.u.
2'F-ANA at 1 9 10 11 15,53.3 a.u.
2'F-ANA at 1 2 4 8 9 10 12 14,52.9 a.u.
2'F-ANA at 1 2 4 7 8 12 13 14 15,84.7 a.u.
2'F-ANA at 9 10 11 13,139 a.u.
2'F-ANA at 6 7 8 11 13 15,434 a.u.
2'F-ANA at 1 2 4 7 8 11 13 15,117 a.u.
2'F-ANA at 3 8 9 10 11 12 13 14 15,330 a.u.
2'F-ANA at 2 10 11 12 14 15,117 a.u.
2'F-ANA at 3 4 6 7 9 14,244 a.u.
2'F-ANA at 2 7 9 11 12 13 14,168 a.u.
2'F-ANA at 5 8 10 12,48.1 a.u.
2'F-ANA at 2 3 4 6 7 12 13 15,569 a.u.
2'F-ANA at 5 8 9 10 11,82.7 a.u.
2'F-ANA at 6 7 8 9 12 13 14 15,216 a.u.
2'F-ANA at 1 4 6 7,119 a.u.
2'F-ANA at 1 4 9 14,65.2 a.u.
2'F-ANA at 10 14 15,107 a.u.
2'F-ANA at 1 4 5 7 8 9 10 11 12 15,168 a.u.
2'F-ANA at 6 8 9 10 12 13 14 15,101 a.u.
2'F-ANA at 5 6 8 9 12 13 14 15,52.7 a.u.
2'F-ANA at 3 5 10 12 13 14 15,49.9 a.u.
2'F-ANA at 1 2 12 13 14 15,64.2 a.u.
2'F-ANA at 1 5 6 7 10 11 12 13 14 15,51.2 a.u.

# Sample 3 — technique: RNA Bind-n-Seq; molecule type: RNA; matrix: in vitro; concentration: 365 nM; relative to: no-protein control; direction: higher = stronger binding
# Target: RNA binding protein fox-1 homolog 2, RRM domain, GST-SBP tag (RBFOX2, Homo sapiens, UniProt O43251-10, residues 100-194)
# Setting: natural RNA segment, single round, ends assumed
# Shared flanks, not repeated: GGGAGUUCUACAGUCCGACGAUC … UGGAAUUCUCGGGUGCCAA
# Residues (chain): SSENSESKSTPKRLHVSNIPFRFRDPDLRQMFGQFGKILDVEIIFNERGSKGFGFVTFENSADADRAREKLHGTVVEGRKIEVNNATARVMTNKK
Oligonucleotide,RBNS enrichment (R)
GGUUACUCUUAGAAUCGCAUGCUGUAGAAAUGCUCUAAAGUGCAUAUAGGACUCAGUCCUUAGAUGUUCUUUUUAUUUUAAGAAAUAACCUCUUCAAGUUGUAACCGUGG,1.29
UGGCACUCCUCUUCUGAGGGGUUGCCCCUGUCCCUAUCUUAGGGGAGCUUGUCUCUUCCAUAGACCUCCAAAGCUUCAGGGAAGGGAAAACCCAGGGUAUCUUCCCUCAG,0.279
AGUGUAUAGUAUUAAGAUGCCUAGAAGAGAGAUGGUUUUGUUCCACUCUUACAGGCACUUUAUAUUUCUUGCUGUAACUACAGCAAUCACAUACAGUACAGACAACCUCA,0.284
AGGAAGCUAGGAAAAGGAAAGUGAAGGAAUGGUCUAAAGAAAUGACCAUUCACACUGAUUUUGUCUGGACAGUCUGGCCGCAGGUUAUUCAUAGAUUAUUCAGCCUUUGC,0.248
GGGCAGAUGCUAGCACUGCCUGUUCUUAGUUCUCCUUCCAUUCCUGUCCUGAAGUUCUAACUGCCGAGCCUUACCUUCAUAGAAGGUCUUCACUGCCAGAGUGGGCAUCU,0.318
UCAUCUAAACUUCAGUUUACAGACAAAAUUAGAGCUUUGUUUUAUUUGGAGAAGGGGGAUGCAUUCAUUUGAUUUUGUUUUUUGUUUUUAAUUAAUUGAAUAUAAUAGGA,0.856
UAAAUGAGGAAAAAUUUCUGUCAAAUUAGCCUAGUAAAAUUUCUGAUCGUUCAUUAUAAAGGCAGCGUUCAUAGAAUUGCUUUUCUUUCUUUUUACCCCCCCUUUGGGAA,0.371
UUACCAGUGGUCGAUGGCCUGGUCAGUCCUGUGCCGGGUGACUUAGGACCAGGCACGUCAGCUCUCUGAGCCUCCCCUUCCCUUGUUGUCACAAGGGAAUAGAAGCAGAA,0.479
GUCGGAGGCAUCAUGGAAAGACUGGGACAGCCCAGGAAACAAGGGGUCUGAGGAUGCAUUCGAGAUGGCAGAUUCCCACUGCCGCUGCCCGCUCAGCCCAGCUGUUGGGA,1.91
AAGAAUAUGAAGCCAUGAAACUUGUCAACAUGCUUGAUAAACUUUCCAGGAGAGCAGAUGUGAAGGACCUGCACCAGGAUGGUGGUUAGCAACAGUGGCCCGUGCCAAAG,0.724
GUUGCAAAGCCACAGAACAUUAUUGAACAUGUGAUGGGGCAGUGACAAACCUCUGCUGCUUCCCUCUUGGAGGAUACAGUAAUACCAGAGUGUGGAGAUCAGUAACCAUA,0.23
AUAAAAAAAAAUGGGAGAUUGUUUUCAGGAAUUCAGGGAUGAAAAGAAAGAAUAAUUUCCAUUAAGUAGAAUUCCAGUUGUCUUUCUGUUUCUAAAACACAGAACUUACA,0.636

# Sample 4 — target: CCNA1, cyclin fold, Cln2 fusion (human); technique: yeast growth competition, sequencing; matrix: yeast; setting: weak parent motif; relative to: not given; direction: higher = stronger binding
# Starting sequence: BORA docking peptide (human); SSLRRKLFLDGNG; partner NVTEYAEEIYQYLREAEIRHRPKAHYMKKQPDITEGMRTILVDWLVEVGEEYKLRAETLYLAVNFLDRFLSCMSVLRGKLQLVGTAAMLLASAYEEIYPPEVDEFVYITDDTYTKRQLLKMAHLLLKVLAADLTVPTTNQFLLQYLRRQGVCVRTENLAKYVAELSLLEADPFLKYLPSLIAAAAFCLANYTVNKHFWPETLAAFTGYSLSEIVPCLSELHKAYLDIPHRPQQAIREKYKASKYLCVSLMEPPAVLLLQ
Change,normalised enrichment score
L7A,0.27
L9A,-0.393
S2A,0.299
N12A,0.671
F8A,0.533
R5K F8L,-0.00407
R5A L7A,-0.00878
F8L,0.318
R5K L9F,0.202
L3A,0.185
G11A,0.163

# Sample 5 — technique: RNA Bind-n-Seq; molecule type: RNA; matrix: in vitro; concentration: 20 nM; setting: 6-mer, flanks averaged, single round; together with: 150 mM KCl; relative to: input library; direction: higher = stronger binding
# Target: TAR DNA-binding protein 43, full length, His tag (TARDBP, Homo sapiens, UniProt Q13148, residues 1-414)
Oligonucleotide,6-mer enrichment (R)
UCCCGU,0.61
GUCACA,0.692
AUCGGC,0.78
GGACUA,0.997
CCGGGA,1.83
ACCCUU,0.661
GUAUGU,1.3
CUCCUC,0.576
GUCGUG,1.34
ACUAAA,0.637
UGAUCG,0.783
UUCUAU,0.552
AGUGUC,0.764
UUAAGG,0.903

# Excerpt of the above (sample 1):
Oligonucleotide,E-score
GCTATTGA,-0.148
CTACCGCC,0.123
CGACTGAC,-0.149
GTGGCAAC,0.111
ATGGGCAA,-0.0626
GCGGGACA,0.0664
TATGAGGA,-0.106
